Experimental data pooled from the literature.
A part holds a random share of what one study measured.

Study 1 — technique: RNA Bind-n-Seq; molecule type: RNA; matrix: in vitro; concentration: not given; baseline: input RNA pool; reading: higher = stronger binding; endpoint: bound/input enrichment
Target: RING finger protein unkempt homolog, zinc fingers 1-6, GST-SBP tag (UNK, Homo sapiens, UniProt Q9C0B0, residues 30-357)
Chain of UniProt Q9C0B0 (30-357, looked up): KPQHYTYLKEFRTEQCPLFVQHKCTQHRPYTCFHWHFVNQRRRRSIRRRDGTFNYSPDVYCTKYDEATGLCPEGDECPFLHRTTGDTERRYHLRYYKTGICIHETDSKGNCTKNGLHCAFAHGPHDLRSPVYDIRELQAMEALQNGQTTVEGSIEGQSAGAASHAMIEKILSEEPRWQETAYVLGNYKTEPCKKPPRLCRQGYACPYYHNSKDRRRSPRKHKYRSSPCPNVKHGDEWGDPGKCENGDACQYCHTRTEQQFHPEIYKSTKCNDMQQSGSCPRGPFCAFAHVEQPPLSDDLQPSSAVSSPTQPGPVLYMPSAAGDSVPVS
Notes: RNA with constant flanks, human-mouse chimeric sites, ends assumed
All sequences stand within: GGGAGUUCUACAGUCCGACGAUC … CAACAGAGGAUUGAGCAUCA
Oligonucleotide = GUAUACGGUUAUCGAGGAAAGGACUGUAGAGCUAAUGUAUACCUGCUUCCCACAGGGGAGAUAGUUUAUUUCAUUGCCUCAGUGGUAGUCCUGUUUAAUUAUGAGGAGAGGACUCAGCGA; value = 0.712 ratio
Oligonucleotide = CAGCCUCAGAGCCCAGACUUCCUGGAUAUCACCAACCCUAAAGCGGUAUUAGAAAAUGCACUUAGGAACUUCGCCUGUCUGACGACUGGAGAUGUGAUUGCUAUCAACUACAAUGAGAAG; value = 0.429 ratio
Oligonucleotide = GAUAAGAAAAACUUGUUGGAGACCCGAUUGCAUGUCACUGGUAGAGACCUGAGGUGUCAAAUAGCUGAAACUUUCGGAUUUCAAGAAAAUUACAUCAAGAUCGUAAUAAAUAAGAAACAG; value = 0.229 ratio
Oligonucleotide = GCCACCAGAUCCCAGAAACAUGACCCUUGCUGCCUACAAAGAGAAGAUGAAGGAGCUCCCGCUGGUGUCCUUGUUCUGCUCUUGCUUCCUGGCCGAUCCCCUGAAUAAAUCAUCCUACAA; value = 0.279 ratio
Oligonucleotide = AACUUCGUACAUAGAUUUCCCUUUGUAGCUGUUUCAAUUGGCUUUGCUGUGAAUAAAGAGAUGGAGUUUGGAAUUGUGUACAGCUGUGUGGAAGAUAAGAUGUACACCGGCAGGAAAGGG; value = 1.15 ratio

Study 2 — technique: protein-binding microarray; molecule type: double-stranded DNA, one strand shown; matrix: in vitro; concentration: not given; reading: higher = stronger binding; endpoint: E-score
Target: Transcriptional repressor CTCF (CTCF, Homo sapiens, UniProt P49711, residues 1-727, full length assumed)
Chain of UniProt P49711 (whole entry, looked up): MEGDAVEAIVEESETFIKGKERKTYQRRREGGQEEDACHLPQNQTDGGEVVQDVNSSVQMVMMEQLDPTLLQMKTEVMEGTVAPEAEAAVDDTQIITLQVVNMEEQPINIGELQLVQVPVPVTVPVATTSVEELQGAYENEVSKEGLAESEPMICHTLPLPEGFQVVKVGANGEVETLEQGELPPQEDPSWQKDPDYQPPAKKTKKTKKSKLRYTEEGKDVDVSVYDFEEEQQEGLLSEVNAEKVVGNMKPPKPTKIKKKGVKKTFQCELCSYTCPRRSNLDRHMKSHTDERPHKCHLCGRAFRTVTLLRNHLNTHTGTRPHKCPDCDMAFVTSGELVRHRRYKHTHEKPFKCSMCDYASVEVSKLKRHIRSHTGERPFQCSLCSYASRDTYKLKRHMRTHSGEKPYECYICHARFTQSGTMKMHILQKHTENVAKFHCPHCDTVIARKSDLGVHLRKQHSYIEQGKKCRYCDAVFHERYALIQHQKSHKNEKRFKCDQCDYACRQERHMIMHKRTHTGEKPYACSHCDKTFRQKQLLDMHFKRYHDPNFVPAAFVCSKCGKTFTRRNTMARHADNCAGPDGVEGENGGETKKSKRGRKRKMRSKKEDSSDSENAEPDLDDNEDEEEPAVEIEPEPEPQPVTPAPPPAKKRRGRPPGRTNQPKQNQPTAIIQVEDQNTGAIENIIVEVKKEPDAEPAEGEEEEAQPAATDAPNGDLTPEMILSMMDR
Notes: k-mer, scored over probes, only values ≥0.25
Oligonucleotide = CGAAATAC; value = 0.296
Oligonucleotide = AGCGCCAC; value = 0.449
Oligonucleotide = ACGATTAT; value = 0.317
Oligonucleotide = TATCATAA; value = 0.306
Oligonucleotide = GTCTAATA; value = 0.264
Oligonucleotide = ATTATATC; value = 0.295
Oligonucleotide = AGTATTAC; value = 0.29
Oligonucleotide = ATGTAAAA; value = 0.293
Oligonucleotide = GTCGCGCA; value = 0.251

Study 3 — technique: RNA Bind-n-Seq; molecule type: RNA; matrix: in vitro; concentration: 365 nM; baseline: no-protein control; reading: higher = stronger binding; endpoint: RBNS enrichment (R)
Target: RNA binding protein fox-1 homolog 2, RRM domain, GST-SBP tag (RBFOX2, Homo sapiens, UniProt O43251-10, residues 100-194)
Notes: natural RNA segment, single round, ends assumed
All sequences stand within: GGGAGUUCUACAGUCCGACGAUC … UGGAAUUCUCGGGUGCCAA
Target sequence (chain): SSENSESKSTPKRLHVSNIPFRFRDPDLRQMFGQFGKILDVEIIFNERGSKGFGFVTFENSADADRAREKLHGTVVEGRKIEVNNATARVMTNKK
Oligonucleotide = CGGGCAGUAAGUAUUGUAACGCCGGCCUCUUUUUGGGUCAUUUACUAGAUUAGGACUAUUACAUCCAAGGCACUGGGGGAUUCUGGUGGGCUCCAAAUUAGCUUUACUGA; value = 0.505
Oligonucleotide = UCAUUGAAAUAAAAUACAGAGUCAAAUCGCUAUUGUUGUUUUAAUGAUCUGUUUUUAGCUGGAUGGUCUUUAUUACAAAGUAUUAGAUUUUUCUUCUAUUUAACGGAAAA; value = 0.346
Oligonucleotide = GCAUUUCAAAAGCUUGAUUGAUGUGUUCAGAGCUAAAUUAAGAGGAGUUUUCAGAUCAAAAACUGGUUACCAUUUUUUGUCAGAGUGUCUGAUGCGGCCACUCAUUCGGC; value = 2.28
Oligonucleotide = GGGUCAACAGUUCCUUUGCCAGCAGCAUCUCCUAAAUUGUAAGGACUCUGUCCACCGGGGCCCUCCCAGGGCUGUGAGGACGGAAACAGGCAGGGAGUGGAGCUAACAGC; value = 0.402
Oligonucleotide = AAUAUUGUAAGAAUAACUCAUAUGGAAGUUCAAGCUAUUUUUAUACUAUAAUAGAGUUAUUUAAUUUUAAUUUGUUGAAUUAUUAGUUACCACUGUCAUUUCUUCAGCUA; value = 0.663
Oligonucleotide = GUCACUCUGUAAGUUAUUUUGUACAUUCUCUACUCUUAAAAGUGUCCCCCAGUCAGUUCCUUUAACAGACCUGAGCUUCUAUGAUGCCAAGGGCGUUCACUGCGACCUGG; value = 0.613
Oligonucleotide = GCUGUUGUUUGUUUCAUAAUUGGAUCAGUCCAUAGCUACCCACAUUGCACUGAGCUUGCCAGUGGUGACUGCCAGGAACGCCUAGGAUCCACUUUGGUGGCUGUUGUUGC; value = 0.673
Oligonucleotide = GUCUCAGAGAAAACAAAUGAGUUACUCUCUCGGACAAGCUGUAGGUCCUACCUAAAUGUCCAGCAGGACAUUAGACAGUCGUACAGGGUACAGAAUAAUUCUUCGUUGUG; value = 0.231
Oligonucleotide = UAUCUGCUGGAGUUCUACGUUUUUAUGUAAGCAUGAAACACAGGCAGUGUGAGAGAAAGCCAGGACCCGACAUGCUGUCCGUUAACGCUACGUCUGCUGUAGUUCCAUUU; value = 0.576
Oligonucleotide = CUCCUCCCUGCUCUCCUGUGCAGGAAUGUCUCUGAGCUGUUCACGUUGAUGCUUCUUGGUUGGCAAGACUUGGGUGUAGACAUGAAACCAUCUUACUAAAAGCGUCUUAA; value = 0.875
Oligonucleotide = UUUGUUCCUUCUGUCCUUCCAACACAGAGACUGUUAGAGAUGAAAGUUUGGACGGUACUAAAGUCACCUCUGACUUCCUUCUGGGUUCCCCUACUACAGUUCUUGCUUCC; value = 0.362
Oligonucleotide = UUUUCUACCUAACUUUUCAAGUAGGAGCCUCUGCCUUUAGUCAGUAGUCUUUGAAGCAAGUAUCCUGAUAGUUUAAGGCUUUGCAAUUUUAACUCCUUGAGGCCAGGCCA; value = 0.388

Mixed results
Molecule = PhoQ, residues 284 288 289 292 302 303 SMYGEC; target = PhoP, residues 12 14 15 18 19 SFCSL (Escherichia coli, UniProt P23836); test = Sort-seq, item: YFP reporter; system = E. coli; conditions = PhoQ-PhoP variant library, added: 10 µM Mg2+; how to read = baseline: high Mg2+ state, higher = stronger signaling; endpoint = fold induction; value = 12.7

For quick reference, copied from above (study 3):
Oligonucleotide = UCAUUGAAAUAAAAUACAGAGUCAAAUCGCUAUUGUUGUUUUAAUGAUCUGUUUUUAGCUGGAUGGUCUUUAUUACAAAGUAUUAGAUUUUUCUUCUAUUUAACGGAAAA; value = 0.346
Oligonucleotide = GCAUUUCAAAAGCUUGAUUGAUGUGUUCAGAGCUAAAUUAAGAGGAGUUUUCAGAUCAAAAACUGGUUACCAUUUUUUGUCAGAGUGUCUGAUGCGGCCACUCAUUCGGC; value = 2.28
